{"data": "Measurements of several laboratories", "organism": "Bacillus subtilis", "note": "Lines come from different studies, so protocols differ."}
{"SMILES": "CC(=O)N[C@@H](CC(C)C)C(=O)N[C@H]1CSSC[C@@H](C(=O)N2CCC[C@H]2C(N)=O)NC(=O)[C@H]([C@@H](C)O)NC(=O)[C@H](C(C)C)NC(=O)[C@H]([C@@H](C)O)NC(=O)CNC(=O)[C@H](CCCCN)NC(=O)[C@H](Cc2ccccc2)NC(=O)[C@H](Cc2ccc(O)cc2)NC(=O)[C@H](CCCCN)NC(=O)[C@H](CCC(=O)O)NC(=O)[C@H](Cc2ccccc2)NC(=O)[C@H](CCCNC(=N)N)NC(=O)[C@H](CCCCN)NC(=O)[C@H](CC(C)C)NC(=O)[C@H](CC(=O)O)NC(=O)[C@@H]2CCCN2C(=O)[C@H](CCCCN)NC(=O)[C@H](C(C)C)NC(=O)[C@H](CCCCN)NC(=O)[C@H](CCCCN)NC(=O)[C@H]([C@@H](C)O)NC1=O", "test": "broth dilution", "system": "CGMCC strain", "conditions": "24 h", "MIC": "10 to 20 µM"}
{"SMILES": "CC[C@H](C)[C@H](N)C(=O)NCC(=O)N[C@@H](CC(C)C)C(=O)N[C@H](CCC(=O)O)C(=O)N[C@H](C(=O)N[C@H]1CCCCNC(=O)[C@H](CC(N)=O)NC(=O)[C@@H](CC(=O)O)NC(=O)[C@H](Cc2c[nH]cn2)NC(=O)[C@@H](Cc2ccccc2)NC(=O)[C@H]([C@@H](C)CC)NC(=O)[C@@H](CCCN)NC1=O)[C@@H](C)CC", "system": "168", "conditions": "18 h, 37 °C, 0.3 mM ZnSO4 LB", "MIC": "> 64 µg/mL"}
{"SMILES": "CC[C@H]1OC(=O)[C@H](C)[C@@H](OC(=O)Cc2ccccc2)[C@H](C)[C@@H](O[C@@H]2O[C@H](C)C[C@H](N(C)C)[C@H]2O)[C@](C)(OC)C[C@@H](C)C(=O)[C@H](C)[C@@H](O)[C@]1(C)O", "test": "microbial growth", "system": "DSM402", "MIC": "2 µg/mL"}
{"SMILES": "C=C1NC(=O)C2CSCC3NC(=O)C(CSC(C)C(NC(=S)C(Cc4cnc[nH]4)NC(=O)c4csc(C(C)NC(C)=O)n4)C(=O)N[C@H](CC(C)C(=O)NC(=O)CC(C(=O)O)NC(=O)C(C)NC3=O)C(=O)N2)NC(=O)[C@@H]2CCCN2C(=O)[C@@H](CC(C)C)NC1=O (some centres unmarked)", "test": "bacterial growth", "system": "168", "MIC": "> 32 µg/mL"}
{"SMILES": "C#CCNC(=O)[C@H]1NC(=O)[C@H]2NC(=O)[C@H](NC(=O)[C@@H]3NC(=O)[C@H](CC(N)=O)NC(=O)[C@H](NC(=O)[C@@H](CC(C)C)NC)[C@H](O)c4ccc(c(Cl)c4)Oc4cc3cc(c4O[C@@H]3O[C@H](CO)[C@@H](O)[C@H](O)[C@H]3O[C@H]3C[C@](C)(N)[C@H](O)[C@H](C)O3)Oc3ccc(cc3Cl)[C@H]2O)c2ccc(O)c(c2)-c2c(O)cc(O)cc21", "test": "broth microdilution", "system": "168, cation-adjusted Mueller-Hinton broth", "MIC": "0.084 µM"}
{"SMILES": "CC(C)C[C@H](NC(=O)[C@H](CCC(=O)O)NC(=O)[C@H](C)NC(=O)[C@H](CC(C)C)NC(=O)[C@H](CCC(=O)O)NC(=O)[C@H](C)NC(=O)[C@H](CCC(N)=O)NC(=O)[C@H](CC(C)C)NC(=O)[C@H](CCC(=O)O)NC(=O)[C@H](Cc1ccc(O)cc1)NC(=O)[C@H](CC(C)C)NC(=O)[C@H](CCC(N)=O)NC(=O)[C@H](C)NC(=O)[C@H](CCC(=O)O)NC(=O)[C@H](CC(C)C)NC(=O)[C@H](CCC(N)=O)NC(=O)[C@H](C)NC(=O)[C@H](CC(C)C)NC(=O)[C@H](CCC(=O)O)NC(=O)[C@H](C)NC(=O)[C@@H](N)CCC(N)=O)C(N)=O", "test": "broth microdilution", "system": "ATCC 6633", "conditions": "24 h", "MIC": "> 250 µM"}
{"SMILES": "c1ccc(CCNC2CCCc3c2[nH]c2ccc(C4CCCCC4)cc32)cc1 (centres unmarked)", "test": "broth microdilution", "system": "168", "MIC": "2 µg/mL"}
{"SMILES": "CC[C@H](C)[C@H](N)C(=O)N[C@@H](CCCNC(=N)N)C(=O)N[C@H](C(=O)N[C@@H](Cc1c[nH]c2ccccc12)C(=O)N[C@@H](Cc1ccccc1)C(=O)N[C@H](C(=O)N[C@@H](CCCCN)C(=O)N[C@H](C(=O)N[C@@H](CCCNC(=N)N)C(=O)N[C@@H](CCCCN)C(=O)N[C@@H](CCSC)C(=O)N[C@@H](CCCCN)C(=O)N[C@@H](C)C(=O)N[C@H](C(=O)N[C@@H](Cc1ccc(O)cc1)C(=O)N[C@@H](Cc1c[nH]cn1)C(=O)N[C@H](C(N)=O)[C@@H](C)O)[C@@H](C)CC)C(C)C)[C@@H](C)CC)C(C)C", "test": "broth dilution", "system": "KCTC 3068", "MIC": "3.1 µM"}
{"SMILES": "O=c1n(CCNCCOS(=O)(=O)c2ccccc2)c(=O)n(S(=O)(=O)c2ccccc2)c(=O)n1S(=O)(=O)c1ccccc1", "test": "microbial growth, broth dilution", "MIC": "2 µg/mL"}
{"SMILES": "CC(=O)N[C@@H](CC(C)C)C(=O)N[C@H]1CSSC[C@@H](C(=O)N2CCC[C@H]2C(N)=O)NC(=O)[C@H]([C@@H](C)O)NC(=O)[C@H](C(C)C)NC(=O)[C@H]([C@@H](C)O)NC(=O)[C@H](CCCCN)NC(=O)[C@H](CC(C)C)NC(=O)[C@H](Cc2ccccc2)NC(=O)[C@H](Cc2ccc(O)cc2)NC(=O)[C@H](CC(C)C)NC(=O)[C@H](CCCCN)NC(=O)[C@H](Cc2ccccc2)NC(=O)[C@H](CCCNC(=N)N)NC(=O)[C@H](CCC(N)=O)NC(=O)[C@H](CC(C)C)NC(=O)[C@H](CCCCN)NC(=O)[C@@H]2CCCN2C(=O)[C@H](CCCCN)NC(=O)[C@H](C(C)C)NC(=O)[C@H](CC(N)=O)NC(=O)[C@H](Cc2ccc(O)cc2)NC(=O)[C@H]([C@@H](C)O)NC1=O", "test": "broth dilution", "system": "CGMCC strain", "conditions": "24 h", "MIC": "2.5 to 5 µM"}
{"SMILES": "C#CCOc1ccc(CN[C@@]2(C)C[C@H](O[C@H]3[C@H](Oc4c5cc6cc4Oc4ccc(cc4Cl)[C@@H](O)[C@@H](NC(=O)[C@@H](CC(C)C)NC)C(=O)N[C@@H](CC(N)=O)C(=O)N[C@H]6C(=O)N[C@H]4C(=O)N[C@H](C(=O)N[C@H](C(=O)NCC(N)=O)c6cc(O)cc(O)c6-c6cc4ccc6O)[C@H](O)c4ccc(c(Cl)c4)O5)O[C@H](CO)[C@@H](O)[C@@H]3O)O[C@@H](C)[C@H]2O)cc1OC", "test": "broth microdilution", "system": "168, cation-adjusted Mueller-Hinton broth", "MIC": "0.074 µM"}
{"note": "A few entries again:"}
{"SMILES": "CC(=O)N[C@@H](CC(C)C)C(=O)N[C@H]1CSSC[C@@H](C(=O)N2CCC[C@H]2C(N)=O)NC(=O)[C@H]([C@@H](C)O)NC(=O)[C@H](C(C)C)NC(=O)[C@H]([C@@H](C)O)NC(=O)[C@H](CCCCN)NC(=O)[C@H](CC(C)C)NC(=O)[C@H](Cc2ccccc2)NC(=O)[C@H](Cc2ccc(O)cc2)NC(=O)[C@H](CC(C)C)NC(=O)[C@H](CCCCN)NC(=O)[C@H](Cc2ccccc2)NC(=O)[C@H](CCCNC(=N)N)NC(=O)[C@H](CCC(N)=O)NC(=O)[C@H](CC(C)C)NC(=O)[C@H](CCCCN)NC(=O)[C@@H]2CCCN2C(=O)[C@H](CCCCN)NC(=O)[C@H](C(C)C)NC(=O)[C@H](CC(N)=O)NC(=O)[C@H](Cc2ccc(O)cc2)NC(=O)[C@H]([C@@H](C)O)NC1=O", "test": "broth dilution", "system": "CGMCC strain", "conditions": "24 h", "MIC": "2.5 to 5 µM"}
